Results of several laboratories.
Values joined by “and” are separate records of one study, mostly repeats; a detail may differ. ± marks the error that the study gave.
F2: Prothrombin (F2, Homo sapiens, UniProt P00734)
ADORA2A: Adenosine receptor A2a (ADORA2A, Homo sapiens, UniProt P29274)
ampC: Beta-lactamase (ampC, Escherichia coli K-12, UniProt P00811)
prp N63Q: Ribosomal processing cysteine protease Prp (prp, Staphylococcus aureus, UniProt Q2FXS9, N63Q)

| SMILES | target | assay | test system | conditions | inhibition |
| --- | --- | --- | --- | --- | --- |
| O=C(Nc1cccnn1)N1CCC(=Cc2cccc(Oc3ccc(C(F)(F)F)cn3)c2)CC1 | Prostaglandin E2 receptor EP2 subtype (PTGER2, Homo sapiens, UniProt P43116) | radioligand binding, inhibitor |  | 10 µM, human, added: [3H]prostaglandin E2 | 19% |
| COc1cccc(C(=O)Nc2ccc3c(c2)B(O)OC3)c1 | F2 | enzyme activity |  | 50 µM, added: substrate 50 µM | ≤ 10% |
| COc1cc(Nc2ncc(F)c(Nc3ccc4c(n3)NC(=O)C(C)(C)O4)n2)cc(OC)c1OC | Myotonin-protein kinase (DMPK, Homo sapiens, UniProt Q09013) | KINOMEscan |  | 10 µM | 89% |
| O=C(Nc1ccc2c(c1)B(O)OC2)c1cccc(NCc2ccccc2)c1 | F2 | enzyme activity |  | 50 µM, added: substrate 50 µM | ≤ 10% |
| CN(CCN1CCC(OC(=O)Nc2ccccc2-c2ccccc2)CC1)C(=O)c1ccc(CN2CCC(C(N)=O)CC2)cc1 | ADORA2A | radioligand binding |  | 1 µM, added: [3H]CGS21680 6.0 nM | -5% |
| NNCc1c[nH]c2ccccc12 | Secernin-3 (Homo sapiens, UniProt Q0VDG4) | probe labelling, inhibitor, competitive ABPP | HEK-293T cell lysate | concentration not given | no inhibition |
| Cc1cc(C)nc(NC(=N)NCCc2c[nH]c3ccc(F)cc23)n1 | ampC | enzyme activity, inhibitor |  | up to 10 µM, colloidal aggregation counterscreen, added: 0.1% DMSO | no inhibition |
| COc1ccc(N2C(=O)N(c3c(C)cccc3Cl)Cc3cnc(Nc4ccc(C5CCN(C)CC5)cc4OC)nc32)nc1 | Activin receptor type-1 (ACVR1, Homo sapiens, UniProt Q04771) | kinase activity, inhibitor |  | 0.5 µM, ALK2 | -46% |
| CNC(=O)[C@H](Cc1ccccc1)NC(=O)[C@H](CC(C)C)[C@H](CSc1cccs1)C(=O)NO | prp N63Q | enzyme activity, inhibitor |  | 10 µM, prp 21.4 nM, added: FITC peptide substrate 0.5 µM | 29.9 ± 5.6% |
| O=C(Nc1ccc2c(c1)B(O)OC2)c1cccc(OCC2CCCCC2)c1 | F2 | enzyme activity |  | 50 µM, added: substrate 50 µM | ≤ 10% |
| CC[C@H](C)[C@H](NC(=O)[C@@H](NC(=O)[C@H](N)Cc1ccccc1)C(C)C)C(=O)N[C@@H](C)C(N)=O | Amyloid-beta precursor protein (APP, Homo sapiens, UniProt P05067) | amyloid-beta aggregation, thioflavin T fluorescence |  | 1.0 µM, 96 h, added: 2 µM amyloid-beta | 76% |
| COc1ccc(Cl)cc1NC(=O)COC(=O)C(CC(C)C)N1C(=O)C2CC=CCC2C1=O (centres unmarked) | ampC | enzyme activity, inhibitor |  | 10 µM, added: CENTA substrate | 5% |
| CN(C(=O)n1cnc(-c2ccc[n+]([O-])c2)c1)C1CCCCC1 | muscarinic receptor, rat | binding |  | 10 µM, added: [3H]oxotremorine M | -7% |
| O=c1ccc2ccccc2o1 | Kappa-type opioid receptor (Oprk1, Rattus norvegicus, UniProt P34975) | radioligand binding, agonist |  | 10 µM | 4.43% |
| CN1CCN(c2cc(-c3ccncc3)c(-c3ccc4ccccc4c3)nn2)CC1 | ADORA2A | antagonist, FLIPR |  | 10 µM | -10.9% |
| CC(=O)N[C@@H](CC(C)C)C(=O)N[C@@H](CC(C)C)C(=O)N[C@H](C=O)CCCNC(=N)N | prp N63Q | enzyme activity, inhibitor |  | 10 µM, prp 21.4 nM, added: FITC peptide substrate 0.5 µM | 9.49 ± 39.8% |
| CCCCCn1c2ccccc2c2cc(C(=O)NCC3CCN(CC(=O)NC(C)(C)C)CC3)ccc21 | Voltage-dependent T-type calcium channel subunit alpha-1I (CACNA1I, Homo sapiens, UniProt Q9P0X4) | calcium current, blocker, whole-cell voltage clamp |  | 3 µM | 42.5 ± 5% |
| O=C(Nc1cnccc1Cl)N1CCN(Cc2ccc3c(c2)OC(F)(F)O3)CC1 | Nociceptin receptor (OPRL1, Homo sapiens, UniProt P41146) | radioligand binding, inhibitor |  | 50 µM, human, added: [3H]nociceptin | 2% |

| SMILES | target | assay | test system | conditions | inhibition |
| --- | --- | --- | --- | --- | --- |
| O=S(=O)(CC1CS1)c1ccc(Oc2ccccc2)cc1 (centres unmarked) | prp N63Q | enzyme activity |  | 10 µM, 21.4 nM enzyme dimer, added: 0.5 µM FITC-labelled peptide substrate | 45.6 ± 5.4% |
| Cn1cccc1-c1cccnc1 | Alpha-2A adrenergic receptor (ADRA2A, Homo sapiens, UniProt P08913) | binding |  | 50 µM | 5.73% |
| CC(=O)NC[C@H]1[C@H](O)[C@H](O)[C@@H]2[C@H](O)C[C@@H](CO)N21 | β-N-acetylglucosaminidase | enzyme activity, inhibitor, colorimetric | Canavalia ensiformis | 2.58 nM, added: p-nitrophenyl GlcNAc substrate | 77% and 77.6% |
| O=S(=O)(Nc1ccc2c(c1)B(O)OC2)c1ccc(Cl)cc1 | F2 | enzyme activity |  | 50 µM, added: substrate 50 µM | ≤ 10% |
| CN1CCc2nc(C(=O)N[C@@H]3C[C@@H](C(=O)N(C)C)CC[C@@H]3NC(=O)C(=O)Nc3ccc(Cl)cn3)sc2C1 | prp N63Q | enzyme activity, inhibitor |  | 10 µM, prp 21.4 nM, added: FITC peptide substrate 0.5 µM | 36.2 ± 7.4% |
| O=C(Nc1ccc2c(c1)B(O)OC2)c1cccc(OCc2ccccc2)n1 | F2 | enzyme activity |  | 50 µM, added: substrate 50 µM | ≤ 10% |
| C[C@H]1N=C(c2ccccc2F)c2cc(Br)ccc2-n2cnc(C(=O)O)c21 | 5-hydroxytryptamine receptor 7 (HTR7, Homo sapiens, UniProt P34969) | binding |  | 10 µM | 3.3 ± 4.8% |
| NC(=O)c1cccc(-c2c[nH]c3ncnc(N4CCOCC4)c23)c1 | Serine/threonine-protein kinase 4 (STK4, Homo sapiens, UniProt Q13043) | kinase activity, inhibitor, PhosphoSens kinetic |  | concentration not given, 2 h, added: ATP at Km | inhibited |
| CCCC(C)NC(=O)c1ccc(Cl)c(Cl)c1 (centres unmarked) | prp N63Q | enzyme activity |  | 10 µM, 21.4 nM enzyme dimer, added: 0.5 µM FITC-labelled peptide substrate | 17.8 ± 29.9% |
| CNCCCC12CCC(c3ccccc31)c1ccccc12 | Potassium/sodium hyperpolarization-activated cyclic nucleotide-gated channel 1 (Homo sapiens, UniProt O60741) | ion current |  | 30 µM | 29.7% |
| COCc1c(-c2cc3cc(C)cc(OC)c3s2)c2c(N)ncnn2c1CN1CCNC(=O)C1 | NMDA receptor agonist site | radioligand binding |  | 10 µM | 14% |
| CC(C)C[C@H](NC(=O)CNC(=O)c1cc(Cl)ccc1Cl)B(O)O | prp N63Q | enzyme activity, inhibitor |  | 10 µM, prp 21.4 nM, added: FITC peptide substrate 0.5 µM | -6.57 ± 6% |
| FC(F)(F)c1cccc(Nc2nc(NCCOc3ccccc3)nc3[nH]cnc23)c1 | cAMP-dependent protein kinase catalytic subunit alpha (PRKACA, Homo sapiens, UniProt P17612) | enzyme activity, inhibitor, Thermo Fisher kinase screening |  | 5 µM | 6% and 3% |
| CC(C)C[C@H](NC(=O)[C@H](CCc1ccccc1)NC(=O)CN1CCOCC1)C(=O)N[C@@H](Cc1ccccc1)C(=O)N[C@@H](CC(C)C)C(=O)[C@@]1(C)CO1 | prp N63Q | enzyme activity, inhibitor |  | 10 µM, prp 21.4 nM, added: FITC peptide substrate 0.5 µM | 21.6 ± 4.1% |
| CC(C)N1CCC[C@H]1CNC(=O)c1cn(C2CCCC2)c(=O)c2c1c1ccccc1n2C | P2X purinergic receptor (rabbit) | radioligand binding |  | 10 µM | 28% |
| CC(C)(F)C[C@H](N[C@@H](c1ccc(-c2ccc(S(C)(=O)=O)cc2)cc1)C(F)(F)F)C(=O)NC1(C#N)CC1 | prp N63Q | enzyme activity, inhibitor |  | 10 µM, prp 21.4 nM, added: FITC peptide substrate 0.5 µM | 49.1 ± 26.2% |
| CC(C(O)c1ccc(O)cc1)N1CCC(Cc2ccccc2)CC1 (centres unmarked) | Glutamate receptor ionotropic, NMDA 2A, with GluN1 (Grin2a, Rattus norvegicus, UniProt Q00959) |  | HEK293 | 120 µM | ~56% |

Some of these lines once more:
| SMILES | target | assay | test system | conditions | inhibition |
| --- | --- | --- | --- | --- | --- |
| O=C(Nc1ccc2c(c1)B(O)OC2)c1cccc(OCC2CCCCC2)c1 | F2 | enzyme activity |  | 50 µM, added: substrate 50 µM | ≤ 10% |
| CNC(=O)[C@H](Cc1ccccc1)NC(=O)[C@H](CC(C)C)[C@H](CSc1cccs1)C(=O)NO | prp N63Q | enzyme activity, inhibitor |  | 10 µM, prp 21.4 nM, added: FITC peptide substrate 0.5 µM | 29.9 ± 5.6% |
